Experimental data pooled from the literature.
Compare with care: the assays were run in different laboratories. Numbers after ± are the reported error.

CN(C(=O)n1cnc(-c2ccc[n+]([O-])c2)c1)C1CCCCC1
concentration (COS-7 expressing human FAAH; culture supernatant; 100 nM, 0 h): 91.7 ± 3 nM

Oc1ccc(C2(c3ccc(O)cc3)c3ccccc3-c3ccccc32)cc1
late apoptotic cells (HepG2 spheroids, dissociated; annexin V-FITC/PI flow cytometry; 0.01 µM, 96 h): 32.1 ± 8.42%

CCOC(=O)Oc1c(OC)cc(C(=O)O[C@@H]2C[C@@H]3CN4CCc5c([nH]c6cc(OC)ccc56)[C@H]4C[C@@H]3[C@H](C(=O)OC)[C@H]2OC)cc1OC
CC50 (African green monkey cells; 5 days): 0.00891 mM

CC(C)(O)c1ccc(OCCc2cccc(F)c2)c(C(N)=O)c1
selectivity ratio (HepG2; 3 (unit not given); baseline: CC50 glucose over CC50 galactose): < 1

O=S(=O)(O)c1nc2ccccc2s1
IC10 (rat hepatoma cells; cell confluency, IncuCyte imaging; 24 h, nominal concentration): 0.597 mM

CC(=O)N[C@@H](CCCCN)C(=O)N[C@@H](CCCCN)C(=O)N[C@@H](CC(C)C)C(=O)N[C@@H](CC(C)C)C(=O)N[C@@H](CCCCN)C(=O)N[C@@H](CC(C)C)C(=O)N[C@@H](CC(C)C)C(=O)N[C@@H](CCCCN)C(=O)N[C@@H](CCCCN)C(=O)N1CCC[C@H]1C(=O)N[C@@H](CC(C)C)C(=O)N[C@@H](C)C(=O)N[C@@H](CC(C)C)C(=O)N[C@@H](CC(C)C)C(=O)N[C@@H](CCCCN)C(N)=O
MHC10 (human red blood cells; haemolysis; 6 h, 37 °C, 5% haematocrit in PBS): > 160 µM

O=S(=O)(c1ccc(O)cc1)c1ccc(O)cc1
late apoptotic cells (HepG2 spheroids, dissociated; annexin V-FITC/PI flow cytometry; 0.1 µM, 24 h): 8.04 ± 3.02%

C#Cc1ccc(OCCc2cccc(F)c2)c(C(N)=O)c1
CC50 (HepG2; galactose medium; 3 (unit not given)): 0.063 ± 0.018 mM

Nc1ncnc2c1ncn2[C@@H]1O[C@@H]2COP(=O)(O)O[C@H]3[C@@H](O)[C@H](n4cnc5c(N)ncnc54)O[C@@H]3COP(=O)(O)O[C@H]2[C@H]1O
viability (HFF-1; 100 µg/mL): 90.5%

CN(CC[C@H](Oc1cccc2ccccc12)c1cccs1)N=O
relative survival (TK6 expressing CYP2C19; 0.125 µM, 4 h, without S9; baseline: vehicle): 85.2%

Fc1ccc([C@@H]2CCNC[C@H]2COc2ccc3c(c2)OCO3)cc1
CC50 (African green monkey cells; 5 days): 0.0166 mM

CCCCCCCCCCCC(=O)N[C@H](CCC(=O)NC(CCCC(N)C(=O)O)C(=O)O)C(=O)O (stereo partly drawn)
viability (HFF-1; 1 µg/mL): 89.7%

CC(C)c1ccc(NC(=O)N(C)C)cc1
toxic ratio (rat hepatoma cells; cell confluency; 24 h, nominal concentration; baseline: baseline IC10 over IC10): 1.4

CCN(CC)CCOC1(c2ccccc2)CCN(CCNc2ccccc2)CC1
CC50 (African green monkey cells; 5 days): 0.0468 mM

CN(CCC=C1c2ccccc2CCc2ccccc21)N=O
relative survival (TK6 expressing CYP2C19; 0.25 µM, 4 h, without S9; baseline: vehicle): 21.8%

CCNCc1nc2c(N)nc3ccccc3c2n1CC(C)(C)O
viability (HFF-1; 100 µg/mL, 48 h): 25.9%

CC(C)C[C@H](NC(=O)CNC(=O)CNC(=O)CNC(=O)[C@H](Cc1ccc(O)cc1)NC(=O)[C@H](CC(C)C)NC(=O)[C@@H](NC(=O)CNC(=O)[C@H](Cc1ccc(O)cc1)NC(=O)[C@H](CCCCN)NC(=O)[C@H](CC(N)=O)NC(=O)[C@@H](NC(=O)[C@H](CCCCN)NC(=O)[C@H](Cc1c[nH]c2ccccc12)NC(=O)CN)[C@@H](C)O)[C@@H](C)O)C(=O)N[C@@H](CCCCN)C(=O)N[C@@H](CCCCN)C(=O)N[C@@H](CC(C)C)C(=O)N[C@@H](CC(C)C)C(=O)N[C@@H](CC(C)C)C(=O)N[C@@H](CC(C)C)C(=O)N[C@@H](CC(C)C)C(=O)N[C@@H](CCCCN)C(=O)N[C@@H](CCCCN)C(=O)N[C@@H](CC(C)C)C(=O)NCC(=O)O
lowest hemolytic concentration (human red blood cells; 1 h, 37 °C, 10% hemolysis): 128 µg/mL

Cc1cc(C(C)(C)c2ccc(O)c(C)c2)ccc1O
late apoptotic cells (HepG2 spheroids, dissociated; annexin V-FITC/PI flow cytometry; 40 µM, 24 h): 11.7 ± 1.94%

CC(=O)N[C@@H](CCCCN)C(=O)N[C@@H](CCCCN)C(=O)N[C@@H](CC(C)C)C(=O)N[C@@H](CC(C)C)C(=O)N[C@@H](CCCCN)C(=O)N[C@@H](CC(C)C)C(=O)N[C@@H](C)C(=O)N[C@@H](CCCCN)C(=O)N[C@@H](CCCCN)C(=O)N1CCC[C@H]1C(=O)N[C@@H](CC(C)C)C(=O)N[C@@H](CCCCN)C(=O)N[C@@H](CC(C)C)C(=O)N[C@@H](CC(C)C)C(=O)N[C@@H](CCCCN)C(N)=O
MHC10 (human red blood cells; haemolysis; 6 h, 37 °C, 5% haematocrit in PBS): > 160 µM

O=c1ccc2ccc(OCCCCN3CCN(c4cccc5sccc45)CC3)cc2[nH]1
CC50 (African green monkey cells; 5 days): 0.012 mM

CC(C)C[C@H](NC(=O)[C@H](CCCCN)NC(=O)[C@H](CC(C)C)NC(=O)[C@H](CC(C)C)NC(=O)[C@H](CCCCN)NC(=O)CNC(=O)[C@H](CC(C)C)NC(=O)CNC(=O)[C@H](CCCCN)NC(=O)[C@H](CC(C)C)NC(=O)[C@H](CC(C)C)NC(=O)[C@H](CCCCN)NC(=O)[C@@H](N)CC(C)C)C(=O)O
lowest hemolytic concentration (human red blood cells; 1 h, 37 °C, 10% hemolysis): > 256 µg/mL

Cc1ccc(OCCc2cc(F)cc(F)c2)c(C(=O)NCC2CC2)c1
selectivity ratio (HepG2; 3 (unit not given); baseline: CC50 glucose over CC50 galactose): < 1

Cn1c(N)nc2c3cccnc3ccc21
IC10 (rat hepatoma cells; cytotoxicity; 24 h, freely dissolved concentration): > 0.335 mM

O=c1ccc2ccccc2o1
chance response (NHEK; cell count; concentration not given, 1 h, PGC1alpha mitochondrial stress panel): 0.03%

CC(C)(c1ccc(O)cc1)c1ccc(O)cc1
necrotic cells (HepG2 spheroids; annexin V-FITC/PI flow cytometry; 0.10 µM, 96 h): 37.9 ± 11%

CC(C)C[C@H](NC(=O)CNC(=O)CNC(=O)CNC(=O)[C@H](CC(N)=O)NC(=O)[C@H](Cc1ccccc1)NC(=O)[C@@H]1CCCN1C(=O)[C@H](CC(N)=O)NC(=O)[C@H](Cc1c[nH]cn1)NC(=O)[C@H](CO)NC(=O)[C@H](CCCNC(=N)N)NC(=O)[C@H](CC(=O)O)NC(=O)[C@H](CO)NC(=O)[C@H](CC(C)C)NC(=O)[C@@H](NC(=O)[C@@H](N)Cc1ccc(O)cc1)[C@@H](C)O)C(=O)N[C@@H](CCCCN)C(=O)N[C@@H](CCCCN)C(=O)N[C@@H](CC(C)C)C(=O)N[C@@H](CC(C)C)C(=O)N[C@@H](CC(C)C)C(=O)N[C@@H](CC(C)C)C(=O)N[C@@H](CC(C)C)C(=O)N[C@@H](CCCCN)C(=O)N[C@@H](CCCCN)C(=O)N[C@@H](CC(C)C)C(=O)NCC(=O)O
lowest cytotoxic concentration (HEK-293T cells; CCK-8; 4 h, 37 °C, 10% cell death): > 256 µg/mL

O=C(c1ccc(F)cc1)C1CCN(CCCn2c(=O)[nH]c3cc(Cl)ccc32)CC1
CC50 (African green monkey cells; 5 days): 0.0324 mM

CC(C)C[C@@H](NC(=O)CNC(=O)[C@@H](CCCCN)NC(=O)[C@@H](CC(C)C)NC(=O)[C@@H](CCCCN)NC(=O)[C@@H](CCCNC(=N)N)NC(=O)[C@@H](CC(C)C)NC(=O)[C@@H](CC(C)C)NC(=O)[C@@H](CCCNC(=N)N)NC(=O)[C@H](N)CCCNC(=N)N)C(=O)N[C@H](CCCCN)C(=O)N[C@H](CCCCN)C(=O)N[C@H](Cc1ccc(O)cc1)C(=O)N[C@H](CC(C)C)C(=O)N[C@H](Cc1ccc(O)cc1)C(=O)N[C@H](Cc1ccccc1)C(=O)N[C@H](CCCCN)C(=O)N[C@H](CC(C)C)C(=O)N[C@H](CCC(N)=O)C(=O)N[C@H](CC(C)C)C(=O)N[C@H](CC(C)C)C(=O)N[C@H](CCCCN)C(=O)N[C@H](CCCCN)C(N)=O
viability (RAW264.7; MTT; 32 µM, 48 h): ~70%

CC[C@H](C)[C@H](NC(=O)[C@H](Cc1c[nH]cn1)NC(=O)[C@@H](NC(=O)[C@@H](NC(=O)[C@H](CC(C)C)NC(=O)[C@H](CCCCN)NC(=O)[C@H](CCCCN)NC(=O)[C@@H]1CCCN1C(=O)[C@H](CC(C)C)NC(=O)[C@H](CC(C)C)NC(=O)[C@H](CCC(N)=O)NC(=O)[C@@H](NC(=O)CNC(=O)[C@H](CC(C)C)NC(=O)[C@H](CCC(N)=O)NC(=O)[C@H](CC(C)C)NC(=O)[C@H](CCCNC(=N)N)NC(=O)[C@H](CC(N)=O)NC(=O)[C@H](CCCCN)NC(=O)[C@H](CC(N)=O)NC(=O)[C@H](CCCNC(=N)N)NC(=O)[C@@H](NC(=O)[C@H](CO)NC(=O)[C@H](Cc1ccccc1)NC(=O)[C@H](CC(C)C)NC(=O)[C@H](Cc1ccccc1)NC(=O)[C@H](C)NC(=O)[C@H](CC(N)=O)NC(=O)[C@H](CC(N)=O)NC(=O)[C@@H](NC(=O)[C@H](CCCNC(=N)N)NC(=O)[C@@H](N)Cc1c[nH]cn1)C(C)C)[C@@H](C)CC)C(C)C)C(C)C)C(C)C)C(=O)N[C@@H](CCCNC(=N)N)C(=O)NCC(=O)N[C@@H](CCCCN)C(=O)N[C@@H](CCC(N)=O)C(=O)N1CCC[C@H]1C(=O)N[C@@H](C)C(=O)N[C@H](C(=O)N[C@@H](Cc1ccccc1)C(=O)O)C(C)C
HC50 (human red blood cells; hemolysis): 363 µmol/L

O=C(Nc1ccccc1)OCC(CN1CCCCC1)OC(=O)Nc1ccccc1 (stereo not drawn)
CC50 (African green monkey cells; 5 days): > 0.0251 mM

CC(C)C[C@H](NC(=O)CN)C(=O)N[C@@H](CCCCN)C(=O)N[C@@H](CCCCN)C(=O)N[C@@H](CC(C)C)C(=O)N[C@@H](CC(C)C)C(=O)N[C@@H](CC(C)C)C(=O)N[C@@H](CC(C)C)C(=O)N[C@@H](CC(C)C)C(=O)N[C@@H](CCCCN)C(=O)N[C@@H](CCCCN)C(=O)N[C@@H](CC(C)C)C(=O)NCC(=O)NCC(=O)NCC(=O)N[C@@H](Cc1ccccc1)C(=O)N[C@@H](CO)C(=O)N[C@@H](CC(C)C)C(=O)N[C@@H](C)C(=O)N1CCC[C@H]1C(=O)N[C@@H](Cc1ccc(O)cc1)C(=O)N[C@@H](C)C(=O)N1CCC[C@H]1C(=O)N[C@@H](C)C(=O)N1CCC[C@H]1C(=O)N[C@H](C(=O)N[C@@H](CC(N)=O)C(=O)O)C(C)C
lowest hemolytic concentration (human red blood cells; 1 h, 37 °C, 10% hemolysis): > 256 µg/mL

CCCCc1oc2ccc(NS(C)(=O)=O)cc2c1C(=O)c1ccc(OCCCN(CCCC)CCCC)cc1
CC50 (African green monkey cells; 5 days): 0.00385 mM

N#C[C@@]1(n2ccc(N)nc2=O)O[C@H](CO)[C@@H](O)[C@H]1O
micronucleated cells (CHO; 250 µM, without S9): 0.44%

CC(C)Cn1cnc2c(N)nc3ccccc3c21
viability (HFF-1; 0.1 µg/mL, 48 h): 93.7%

CC(=O)N1CCN([C@H]2CCN(C(=O)N(C)[C@H](C)c3cc(C(F)(F)F)cc(C(F)(F)F)c3)[C@@H](c3ccc(F)cc3C)C2)CC1
CC50 (African green monkey cells; 5 days): 0.0178 mM

O=C(O)c1ccc(C(=O)O)cc1
AC50 (MDA-kb2; cytotoxicity): 1000 mM

CCCCCCCC(=O)N[C@@H](CCCCN)C(=O)N[C@@H](CCCCN)C(=O)N[C@@H](C)C(=O)N[C@@H](C)C(=O)N[C@@H](CCCCN)C(=O)N[C@@H](C)C(=O)N[C@@H](C)C(=O)N[C@@H](CCCCN)C(=O)N[C@@H](CCCCN)C(=O)N1CCC[C@H]1C(=O)N[C@@H](C)C(=O)N[C@@H](CCCCN)C(=O)N[C@@H](C)C(=O)N[C@@H](C)C(=O)N[C@@H](CCCCN)C(N)=O
MHC10 (human red blood cells; haemolysis; 6 h, 37 °C, 5% haematocrit in PBS): > 160 µM

Oc1ccc(C(c2ccc(O)cc2)(C(F)(F)F)C(F)(F)F)cc1
viable cells (HepG2 spheroids, dissociated; annexin V-FITC/PI flow cytometry; 0.01 µM, 96 h): 42.2 ± 8.54%

Nc1nc2c(ncn2[C@@H]2O[C@@H]3COP(=O)(O)O[C@H]4[C@@H](O)[C@H](n5cnc6c(=O)[nH]c(N)nc65)O[C@@H]4COP(=O)(O)O[C@H]3[C@H]2O)c(=O)[nH]1
viability (HFF-1; 10 µg/mL): 94.5%

Repeated from above:
CC(=O)N1CCN([C@H]2CCN(C(=O)N(C)[C@H](C)c3cc(C(F)(F)F)cc(C(F)(F)F)c3)[C@@H](c3ccc(F)cc3C)C2)CC1
CC50 (African green monkey cells; 5 days): 0.0178 mM

CN(CC[C@H](Oc1cccc2ccccc12)c1cccs1)N=O
relative survival (TK6 expressing CYP2C19; 0.125 µM, 4 h, without S9; baseline: vehicle): 85.2%

O=S(=O)(c1ccc(O)cc1)c1ccc(O)cc1
late apoptotic cells (HepG2 spheroids, dissociated; annexin V-FITC/PI flow cytometry; 0.1 µM, 24 h): 8.04 ± 3.02%
